Measurements pooled from the literature.
Every numbered part comes from another study and shows a few of its results, in no order. Positions count from the first letter of the parent shown.

Sample 1 — technique: DHFR PCA, deep sequencing; sample: yeast; added: (+)-ABA 0.032 µM; relative to: wild-type fitted maximum; direction: higher = stronger binding; endpoint: relative binding score
Target: ABI1, truncated, D143A, DHFR fusion (Arabidopsis thaliana)
Setting: methotrexate growth selection, single substitutions
Starting sequence: PYL1, truncated, DHFR fusion (Arabidopsis thaliana); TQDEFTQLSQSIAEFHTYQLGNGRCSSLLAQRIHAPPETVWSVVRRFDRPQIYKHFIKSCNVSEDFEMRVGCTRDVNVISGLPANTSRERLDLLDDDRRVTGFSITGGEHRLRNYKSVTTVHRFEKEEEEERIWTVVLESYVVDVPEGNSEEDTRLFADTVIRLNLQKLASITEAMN
I57T: 3.06%
R49A: 26.1%
L138A: 2.78%
K116V: -1.69%
N114I: 7.11%
C72D: 20.9%
N114Q: -10.6%
E89W: 1.72%
E131H: 60.6%
F66I: -3.56%
T119Q: -0.614%
V145L: -3.6%
N77Y: 37.5%
I172F: -7.83%
N77C: 58.6%
L112H: -12.3%
E131L: 35.2%
M176S: 4.26%
R74V: -3.31%
V100P: -2.89%
T120M: 3.66%
E147S: 4.49%
R113D: -2.36%
L91H: 7.03%

Sample 2 — technique: protein binding microarray; molecule type: double-stranded DNA, one strand shown; sample: in vitro; concentration: not given; relative to: not given; direction: higher = stronger binding; endpoint: E-score
Target: Histone acetyltransferase KAT6A, winged helix 1, GST fusion (KAT6A, Homo sapiens, UniProt Q92794, residues 1-85)
Setting: 8-mer, flanks averaged, mean of 2 arrays, mostly near background
Residues (chain): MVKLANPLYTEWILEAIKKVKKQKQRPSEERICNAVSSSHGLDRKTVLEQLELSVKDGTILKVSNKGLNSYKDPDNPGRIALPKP
CACTTTGG: -0.0862
GATCCAGA: -0.158
GCACCGTA: 0.292
TAACCCGA: 0.174
GTACGCTA: 0.252
GGTGGTCA: 0.0775
AAAGCCAG: -0.228
GGTATCAC: -0.0474
TACTGACA: -0.147
AACATCTG: -0.16
CAGAGTTC: -0.191
GACAAACC: -0.0488
AAGGGACT: -0.144
CGCTCACG: 0.36
AGAGTGTC: -0.0977
AACTGAGC: -0.0116

Sample 3 — organism: Saccharomyces cerevisiae; effect on: peptide binding; technique: yeast competitive growth sequencing; molecule type: peptide; strain: cyclin F-Cln2 fusion; concentration: concentration not given; setting: tiling library, Cln2-subtracted; direction: direction not given; endpoint: binding score
PPKPLKKLRFDIEGSD: 0.716
QDYERRLLRQIVIQNE: -0.17
IPDRSTKPVVFSPT: -0.0998
SDSTVTKLDFDLEP: -0.0183
KRNLLNEFDRII: 2.25
VLLKRLQDVVSERANH: 0.301
KRCATPVIIDEILPSK: -0.0794
ALLRRLQDVANDRGSH: 0.426
TSSAQRRLEIPSGGAD: 1.62
LFVPQRKLEVSTEDVH: 0.715
NCKKRRALDFLSRLPL: 1.53
PHKTFRKLRLFDTPHT: 1.27
PKNAKRNLSSEFAN: 0.36
EPKTLFLGAGDFQF: 0.768
RKLDLEGIGR: 3.63
ARKRLELGNLGNPQ: 1.97
GPVKLEFDVSDGAT: 1.15

Sample 4 — technique: Spec-seq; molecule type: double-stranded DNA, one strand shown; sample: in vitro; concentration: not given; setting: whole probe, mean of replicates; relative to: not given; direction: lower = stronger binding; endpoint: relative binding energy; shared flanks, not repeated: GAGTCGTCTCGTCAGCAC … CCGTAGAGCACTCAGGTC
Target: POU domain, class 5, transcription factor 1, POU domain (Pou5f1, Mus musculus, UniProt P20263, residues 131-289)
Chain of UniProt P20263 (131-289, looked up): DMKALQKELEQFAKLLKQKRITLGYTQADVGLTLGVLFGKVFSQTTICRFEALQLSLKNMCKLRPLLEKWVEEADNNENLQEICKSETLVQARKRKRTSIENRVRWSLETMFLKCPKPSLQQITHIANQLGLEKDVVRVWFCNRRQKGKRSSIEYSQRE
ATAGACAT: 0.444 ln ratio
ATTGCAAT: -0.0488 ln ratio
ATGCAGTG: 0.58 ln ratio
ATTATCAT: -1.43 ln ratio
TACATAAT: -0.671 ln ratio
ATCAGAAT: -0.412 ln ratio
AGGCTAAT: 0.62 ln ratio
TGCATAAT: -1.71 ln ratio
AACCTAAT: 0.675 ln ratio
GAGCTAAT: 0.913 ln ratio
ATTGTCAT: 0.48 ln ratio
GTGATAAT: 0.318 ln ratio
ATTTCAAT: -0.668 ln ratio
ATACACAT: 0.0953 ln ratio
ATGCGAAT: -0.15 ln ratio
ATGCGCCT: 0.429 ln ratio
ATGCCTGG: 0.747 ln ratio
ATCACCAT: -0.701 ln ratio
ATGACAAT: 0.34 ln ratio
TCGATAAT: 0.673 ln ratio
TCACTAAT: 0.531 ln ratio
CTGCTAAT: 0.369 ln ratio
ATGCGTTG: 0.374 ln ratio
CCGATAAT: 0.806 ln ratio
GTTCTAAT: 0.763 ln ratio

Sample 5 — technique: RNA Bind-n-Seq; molecule type: RNA; sample: in vitro; concentration: not given; relative to: input RNA pool; direction: higher = stronger binding; endpoint: bound/input enrichment
Target: RING finger protein unkempt homolog, zinc fingers 1-6, GST-SBP tag (UNK, Homo sapiens, UniProt Q9C0B0, residues 30-357)
Setting: RNA with constant flanks, human-mouse chimeric sites, ends assumed
Shared flanks, not repeated: GGGAGUUCUACAGUCCGACGAUC … CAACAGAGGAUUGAGCAUCA
Target sequence (chain): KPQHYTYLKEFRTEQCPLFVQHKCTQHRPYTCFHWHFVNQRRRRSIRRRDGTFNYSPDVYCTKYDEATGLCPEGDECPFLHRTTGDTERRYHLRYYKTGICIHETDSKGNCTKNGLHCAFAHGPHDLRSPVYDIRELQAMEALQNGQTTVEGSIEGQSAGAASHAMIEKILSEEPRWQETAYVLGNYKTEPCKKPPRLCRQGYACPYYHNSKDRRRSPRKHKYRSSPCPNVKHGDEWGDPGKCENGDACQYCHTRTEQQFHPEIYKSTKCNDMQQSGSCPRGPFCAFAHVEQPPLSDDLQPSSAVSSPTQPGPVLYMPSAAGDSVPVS
UUACCCGAAAAUGAAGAUGAGCUGGAGAGCACCAACAGGCGCUACACCAAGAGGGACUGCAGCACUUUCCUCAGAACUAGUGAGACGGGCAUCGUGGACCAGGUCAUGGUCACUCUCAAC: 0.186 ratio
UCCUUGGACCCCAGUCAUAUAGGUGACCUGCAAAAAGCAGACACCAGUAGUCAAGGUGCUUUAGUGUUUCUCUCAAAGGACUACGAAAUAGAAAGUCAAAAUCCUCUGGCCUCUCCUACG: 2.05 ratio
GUGACUGGUGUUAAGAUUUACCCUCAGCAAAGAAGUGCAGUAGUCACCAUAAUUCCAUCUGUGGUGAGUGCCAGUCAGAUUGUGGAGCUGGUCCCAGAACUCAGUUUAGACAUGGGAACU: 0.705 ratio
UCAGGAACUCAGACAAACAUGAAUGUAAAUGAAGUCAUUAGCAACAGAGCAAUUGAAAUGUUAGGAGGUGAACUUGGCAGCAAGAAGCCUGUGCAUCCCAAUGAUCAUGUUAACAAAAGC: 0.176 ratio
UCCCAAAUUAUAAGGCAAGAAGGAGCCAAUUGUUUGUCACUCCACACACAGGGAAGGCGAUAACAUUGUACAUUGGUUUACAUUUUUUCCCCCUGUGGAUUUUUCUAGAGGUCAUAGUGC: 0.616 ratio
AAAGAGUGGAUAGAGUGUGCACACGGGAUCGGUUAUACCCGGGCGAAAAAGGAGUGCAAGAUAGAGUUCGAUGACUUCGAAGAGUGCUUGCUUCGGUACAAAACGAUGAGGCGAAUGCAU: 0.442 ratio
GUAGCUGGGACUACAGAAAUGCUGGUAAUUUCAGUCACUUGCUGAUGACUUCUGAUGUCCCAGCAAAUGUUGGCAUUGUUGACUGCUCUGUGAAGACACUCGCAAGGCCACGUCUAAGGU: 0.0929 ratio
AAAGAGUGGAUAGAGUGUGCACAUGGAAUCGGUGGGACCCGGGCGAAAAAGGAGUGCAAGAUAGAAUUCGAUGACUUCGAAGAGUGCUUGCUUCGGUACAAAACGAUGAGGCGAAUGCAU: 0.395 ratio
UUGAAAACUGAUUCAAGUAAGUUUGAGUAUCACAAUGUUAGCUUUCUAAUUCCAUAAAAGUACUUGGUUUUUACAGUAACCCCACAUACAUCACCCCCCGUUUAUAAGUAAAGAGCAACU: 2.03 ratio
GUACUGCAACAGCAGGGAAAACUGCAGGAAGCACUGAUGCAUUAUAAGGAGGCUAUUCGAAUCAGUCCUACCUUUGCUGAUGCCUACUCUAAUAUGGGAAACACUCUAAAGGAGAUGCAG: 0.205 ratio
ACUCUUGACUCUUUCCAUCCUCUUCCUUUCCCUCUUGAUCUUCAAGGCCAUGAAUCCCAAAAUAACAGUCUUAGUGGCUAGCACCCAAACAGAGGUGGAAUAAAUCCACCCCAGUGUCUC: 0.622 ratio

Sample 6 — technique: aptamer microarray, sandwich; molecule type: DNA with 2'F-ANA; sample: in vitro; concentration: 200 nM; added: Cy3 exosite-II aptamer, 400 nM; direction: higher = stronger binding; endpoint: mean fluorescence intensity; strand: GGTTGGTGTGGTTGG
Target: Prothrombin, mature alpha-thrombin (F2, Homo sapiens, UniProt P00734)
Setting: whole 15-mer aptamer, many near background
2'F-ANA at 2 3 4 6 10 12 13 14 15: 165 a.u.
2'F-ANA at 4 5 7 10 11 12 13 15: 48.7 a.u.
2'F-ANA at 1 2 3 8 9 10 11 12 13: 106 a.u.
2'F-ANA at 1 2 4 5 6 7 9 11 15: 48.4 a.u.
2'F-ANA at 3 5 6 7 8 9 10 11 14 15: 58.4 a.u.
2'F-ANA at 1 2 3 6 8 9 10 11 12 14: 51.8 a.u.
2'F-ANA at 2 4 8 10 14 15: 122 a.u.
2'F-ANA at 2 3 5 6 8 9 10 11 12 13 14 15: 52.7 a.u.
2'F-ANA at 1 2 4 5 10 13: 44 a.u.
2'F-ANA at 2 5 8 9 11 14 15: 54 a.u.
2'F-ANA at 1 2 3 4 7 8 9 11 12 15: 317 a.u.
2'F-ANA at 1 3 4 5 6 9 11 13: 50.2 a.u.
2'F-ANA at 3 4 8 9 10 11: 278 a.u.
2'F-ANA at 3 4 6 8 11 12 13 15: 775 a.u.
2'F-ANA at 1 2 4 5 6 7 8 12 15: 118 a.u.
2'F-ANA at 1 3 5 10 12: 46.3 a.u.
2'F-ANA at 7 8 13 15: 575 a.u.
2'F-ANA at 1 4 5 6 10 13: 44.1 a.u.
2'F-ANA at 7 10 12 14: 120 a.u.
2'F-ANA at 1 3 7 8 14: 110 a.u.
